Measurements collected from several papers.
Protocols differ between the studies behind these lines. Several values in a cell are separate wells, animals, samples, runs or records. Substitutions count along the parent as printed. Numbers after ± are the reported error.
P1: TECPR2 (Homo sapiens); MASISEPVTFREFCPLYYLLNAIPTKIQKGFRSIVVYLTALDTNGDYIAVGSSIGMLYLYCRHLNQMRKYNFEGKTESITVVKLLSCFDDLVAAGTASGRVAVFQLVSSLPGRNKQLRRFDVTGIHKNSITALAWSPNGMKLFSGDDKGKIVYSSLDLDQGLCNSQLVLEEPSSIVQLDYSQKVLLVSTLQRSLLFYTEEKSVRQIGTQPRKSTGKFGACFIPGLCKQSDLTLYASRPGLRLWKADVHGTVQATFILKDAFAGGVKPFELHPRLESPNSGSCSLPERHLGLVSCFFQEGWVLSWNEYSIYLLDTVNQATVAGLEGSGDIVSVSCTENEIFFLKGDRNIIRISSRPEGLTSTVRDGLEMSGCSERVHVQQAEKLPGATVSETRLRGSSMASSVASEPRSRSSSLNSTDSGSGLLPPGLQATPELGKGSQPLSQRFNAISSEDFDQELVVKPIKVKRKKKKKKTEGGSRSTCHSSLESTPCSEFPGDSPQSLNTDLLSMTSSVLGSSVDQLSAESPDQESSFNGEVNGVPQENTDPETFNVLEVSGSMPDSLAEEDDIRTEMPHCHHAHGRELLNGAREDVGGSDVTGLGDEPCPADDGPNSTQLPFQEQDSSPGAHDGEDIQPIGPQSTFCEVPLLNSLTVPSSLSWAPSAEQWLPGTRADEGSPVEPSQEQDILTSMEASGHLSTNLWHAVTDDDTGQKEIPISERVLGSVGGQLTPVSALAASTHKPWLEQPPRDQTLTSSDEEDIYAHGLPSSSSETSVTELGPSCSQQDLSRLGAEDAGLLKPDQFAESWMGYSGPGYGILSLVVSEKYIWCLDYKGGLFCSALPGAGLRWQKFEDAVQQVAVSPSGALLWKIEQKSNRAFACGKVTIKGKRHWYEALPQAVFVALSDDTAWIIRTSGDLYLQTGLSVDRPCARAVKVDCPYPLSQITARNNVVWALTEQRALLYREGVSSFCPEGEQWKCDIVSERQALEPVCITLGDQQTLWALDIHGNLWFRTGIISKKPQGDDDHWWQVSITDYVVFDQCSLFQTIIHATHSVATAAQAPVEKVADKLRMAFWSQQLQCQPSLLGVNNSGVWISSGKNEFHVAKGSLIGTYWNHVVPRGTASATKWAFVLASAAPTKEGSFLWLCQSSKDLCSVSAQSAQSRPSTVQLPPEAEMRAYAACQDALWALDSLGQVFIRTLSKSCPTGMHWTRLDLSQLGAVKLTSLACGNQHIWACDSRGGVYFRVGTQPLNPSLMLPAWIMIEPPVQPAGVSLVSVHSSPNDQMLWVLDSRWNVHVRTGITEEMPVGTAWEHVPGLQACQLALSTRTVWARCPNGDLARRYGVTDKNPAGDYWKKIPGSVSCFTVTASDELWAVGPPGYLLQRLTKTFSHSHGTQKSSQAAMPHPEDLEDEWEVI

For `CC(C)C[C@@H](NC(=O)[C@@H](CC(C)C)NC(=O)[C@@H](CC(=O)O)NC(=O)[C@@H](CC(C)C)NC(=O)[C@@H](CC(C)C)NC(=O)[C@@H](CC(C)C)NC(=O)[C@H](NC(=O)[C@@H](CC(=O)O)NC(=O)[C@H](NC(=O)[C@H]1CCCN1C(=O)[C@@H](Cc1ccccc1)NC(=O)[C@@H](CC(C)C)NC(=O)[C@@H](CC(C)C)NC(=O)[C@@H](CC(=O)O)NC(=O)[C@@H](CC(C)C)NC(=O)[C@@H](Cc1ccc(O)cc1)NC(=O)[C@@H](C)NC(=O)[C@@H](CCCNC(=N)N)NC(=O)[C@@H](Cc1c[nH]c2ccccc12)NC(=O)[C@H]1CCCN1C(=O)[C@@H](CC(N)=O)NC(=O)[C@@H](CCC(N)=O)NC(=O)[C@@H](CC(=O)O)NC(=O)[C@@H](CC(=O)O)NC(=O)[C@@H](CSC1CC(=O)N(CCNC(=O)CN2CCN(CC(=O)O)CCN(CC(=O)O)CC2)C1=O)NC(=O)[C@@H](C)N)[C@H](C)O)[C@H](C)O)C(=O)N[C@H](Cc1c[nH]c2ccccc12)C(=O)O` (some centres unmarked) [copper-64 labelled], the blood uptake was 15.3 %ID/g (male nude mice, LNCaP xenograft; intravenous, dose not given, 4 h).
`nucleophosmin T78E` has an unstructured content of 69% (far-UV CD, CDSSTR; Tris buffer, NaCl; pH 7.5, room temperature).
For `CCCC[C@H](NC(=O)CCCCCCCNC(=O)CN1CCN(CC(=O)O)CCN(CC(=O)O)CC1)C(=O)N[C@H]1CC(=O)NCCCC[C@@H](C(N)=O)NC(=O)[C@H](Cc2c[nH]c3ccccc23)NC(=O)[C@H](CCCNC(=N)N)NC(=O)[C@@H](Cc2ccccc2)NC(=O)[C@H](Cc2c[nH]cn2)NC1=O` [technetium-99m labelled], the tissue uptake was 0.04 ± 0.03 %ID/g (C57 mouse, blood; intravenous, 0.037 MBq, 4 h).
`C=C1CC[C@H](OCCCNC(=O)CCOCCOCCOCCOCCOCCOCCOCCOCCOCCOCCOCCOCCOCCOCCOCCOCCOCCOCCOCCOCCOCCOCCOCCOCCOCCOCCOCCOCCOCCOCCOCCOCCOCCOCCOCCOCCNC(=O)CCN2C(=O)CC(SC[C@H](NC(=O)[C@H](Cc3ccccc3)NC(=O)[C@H](CC(N)=O)NC(=O)[C@H](Cc3c[nH]cn3)NC(=O)[C@@H](NC(=O)[C@H](CC(=O)O)NC(=O)[C@H](CCC(N)=O)NC(=O)[C@H](CC(C)C)NC(=O)[C@H](CCCCN)NC(=O)[C@H](CCCCN)NC(=O)[C@H](CCCNC(=N)N)NC(=O)[C@H](CC(C)C)NC(=O)[C@H](Cc3c[nH]c4ccccc34)NC(=O)[C@H](CCC(=O)O)NC(=O)[C@@H](NC(=O)[C@H](CCCNC(=N)N)NC(=O)[C@H](CCC(=O)O)NC(=O)[C@H](CCSC)NC(=O)[C@H](CO)NC(=O)[C@H](CC(N)=O)NC(=O)[C@H](CC(C)C)NC(=O)[C@H](Cc3c[nH]cn3)NC(=O)[C@H](CCCCN)NC(=O)CNC(=O)[C@H](CC(C)C)NC(=O)[C@H](CC(N)=O)NC(=O)[C@H](Cc3c[nH]cn3)NC(=O)[C@H](CCSC)NC(=O)[C@H](CC(C)C)NC(=O)[C@H](CCC(N)=O)NC(=O)[C@@H](NC(=O)[C@H](CCC(=O)O)NC(=O)[C@H](CO)NC(=O)[C@@H](NC(=O)[C@@H](N)CO)C(C)C)[C@@H](C)CC)C(C)C)C(C)C)C(=O)O)C2=O)C/C1=C/C=C1\CCC[C@]2(C)[C@@H]([C@H](C)CCCC(C)(C)O)CC[C@@H]12` (some centres unmarked) gave an MRT of 23.3 h (male cynomolgus monkey, plasma; subcutaneous, 0.02 mg/kg, single dose).
With `P1 E1299A` the relative binding was 0.08 (Rab5 GFP fusion Q79L; co-IP; HEK293T, lysate; with: GTP; relative to: unchanged protein, higher = more binding).
With `N#C[C@@H]1CC(F)(F)CN1C(=O)CNC(=O)c1ccnc2ccc(OCCCN3CCN(C(=O)CN4CCN(CC(N)=O)CCN(CC(N)=O)CCN(CC(N)=O)CC4)CC3)cc12` [lead-212 labelled] the tissue uptake was 0.97 ± 0.1 %IA/g (male NRG mice, HEK293T-hFAP tumour, blood; intravenous, 100 pmol, 1 h, ex vivo, unblocked).
`TGCTGACGGAAACTACCACTCGGATTCTATAGGGGGGGTT (ssDNA)`: binding “binds” (AGTR1 1-359 (Homo sapiens, UniProt P30556); ELONA; single-stranded DNA).
The tissue uptake of `CCCC[C@@H]1NC(=O)[C@@H](CC(C)C)NC(=O)[C@H](CCCCNC(=O)CN2CCN(CC(=O)O)CCN(CC(=O)O)CC2)NC(=O)NNC(=O)[C@H](Cc2c[nH]cn2)NC(=O)[C@@H](Cc2c[nH]c3ccccc23)NC1=O` [copper-64 labelled] is reported as 1.8 ± 1.1 %ID/g (Balb/c mice, spleen; intravenous, dose not given).
For `CAGACTGGGAAATTCCAGTGTC (dsDNA)`, the Kd was 116 nM (RELA 1-551 (Homo sapiens, UniProt Q04206); EMSA; double-stranded DNA, one strand shown).
The tissue uptake of `Cc1cc(-c2ccc(NC(=O)CC[C@H](NC(=O)CN3CCN(CC(=O)O)CCN(CC(=O)O)CCN(CC(=O)O)CC3)C(=O)NCC(=O)N[C@@H](CC(N)=O)C(=O)N[C@H](C(=O)N[C@H](C(=O)N[C@@H](CCCNC(=N)N)C(=O)N[C@@H](CCC(N)=O)C(=O)O)C(C)C)C(C)C)c(C)c2)ccc1/N=N/c1ccc2c(S(=O)(=O)O)cc(S(=O)(=O)O)c(N)c2c1O` [copper-64 labelled] is reported as 2.61 ± 0.44 %ID/g (nude mice, muscle; intravenous, 1 h).
`CC(C)C[C@H](NC(=O)[C@H](Cc1ccc(O)cc1)NC(=O)[C@@H](CCCNC(=N)N)NC(=O)[C@@H](CO)NC(=O)[C@H](Cc1ccccc1)NC(=O)[C@H](CC1CCCCC1)NC(=O)[C@H](CC(=O)O)NC(=O)CN1CCN(CC(=O)O)CCN(CC(=O)O)CCN(CC(=O)O)CC1)C(=O)N[C@@H](Cc1c[nH]c2ccccc12)C(=O)N[C@@H](CO)C(=O)O` [copper-64 labelled] gave an activity concentration of 771 Bq/mL and 1480 Bq/mL and 580 Bq/mL and 727 Bq/mL and 721 Bq/mL and 674 Bq/mL (human, muscle; concentration not given, 3 h).
`Cc1ccnc(-c2cc(C(=O)NCCCCCC(=O)N[C@@H](CCCNC(=N)N)C(=O)N[C@@H](CCCNC(=N)N)C(=O)N[C@@H](Cc3c[nH]c4ccccc34)C(=O)N[C@@H](Cc3c[nH]c4ccccc34)C(=O)N[C@@H](CCCNC(=N)N)C(=O)N[C@@H](Cc3c[nH]c4ccccc34)C(=O)N[C@@H](Cc3c[nH]c4ccccc34)C(=O)N[C@@H](CCCNC(=N)N)C(=O)N[C@@H](CCCNC(=N)N)C(N)=O)ccn2)c1` (stereo in doubt) — result for “singlet oxygen yield”: 59% (RNO/histidine method; acetonitrile; with: irradiation 365 nm; relative to: phenalenone).
For `P1 T903M`, the relative binding was 1.46 (Rab5 GFP fusion Q79L; co-IP; HEK293T, lysate; with: GTP; relative to: unchanged protein, higher = more binding).
`CCCC[C@@H]1NC(=O)[C@@H](CC(C)C)NC(=O)[C@H](CCCCNC(=O)CN2CCN(CC(=O)O)CCN(CC(=O)O)CC2)NC(=O)[C@@H](CO)NC(=O)[C@H](Cc2c[nH]cn2)NC(=O)[C@@H](Cc2c[nH]c3ccccc23)NC1=O` [copper-64 labelled] gave a tissue uptake of 0.09 ± 0.01 %ID/g (Balb/c mice, muscle; intravenous, dose not given).

Excerpt of the above:
The tissue uptake of `Cc1cc(-c2ccc(NC(=O)CC[C@H](NC(=O)CN3CCN(CC(=O)O)CCN(CC(=O)O)CCN(CC(=O)O)CC3)C(=O)NCC(=O)N[C@@H](CC(N)=O)C(=O)N[C@H](C(=O)N[C@H](C(=O)N[C@@H](CCCNC(=N)N)C(=O)N[C@@H](CCC(N)=O)C(=O)O)C(C)C)C(C)C)c(C)c2)ccc1/N=N/c1ccc2c(S(=O)(=O)O)cc(S(=O)(=O)O)c(N)c2c1O` [copper-64 labelled] is reported as 2.61 ± 0.44 %ID/g (nude mice, muscle; intravenous, 1 h).
For `CC(C)C[C@@H](NC(=O)[C@@H](CC(C)C)NC(=O)[C@@H](CC(=O)O)NC(=O)[C@@H](CC(C)C)NC(=O)[C@@H](CC(C)C)NC(=O)[C@@H](CC(C)C)NC(=O)[C@H](NC(=O)[C@@H](CC(=O)O)NC(=O)[C@H](NC(=O)[C@H]1CCCN1C(=O)[C@@H](Cc1ccccc1)NC(=O)[C@@H](CC(C)C)NC(=O)[C@@H](CC(C)C)NC(=O)[C@@H](CC(=O)O)NC(=O)[C@@H](CC(C)C)NC(=O)[C@@H](Cc1ccc(O)cc1)NC(=O)[C@@H](C)NC(=O)[C@@H](CCCNC(=N)N)NC(=O)[C@@H](Cc1c[nH]c2ccccc12)NC(=O)[C@H]1CCCN1C(=O)[C@@H](CC(N)=O)NC(=O)[C@@H](CCC(N)=O)NC(=O)[C@@H](CC(=O)O)NC(=O)[C@@H](CC(=O)O)NC(=O)[C@@H](CSC1CC(=O)N(CCNC(=O)CN2CCN(CC(=O)O)CCN(CC(=O)O)CC2)C1=O)NC(=O)[C@@H](C)N)[C@H](C)O)[C@H](C)O)C(=O)N[C@H](Cc1c[nH]c2ccccc12)C(=O)O` (some centres unmarked) [copper-64 labelled], the blood uptake was 15.3 %ID/g (male nude mice, LNCaP xenograft; intravenous, dose not given, 4 h).
